Published values collected from several papers.
Every numbered part comes from another study and shows a few of its results, in no order.

Sample 1
Target: Sal-like protein 4, full length isoform A (SALL4, Homo sapiens, UniProt Q9UJQ4, residues 1-1053)
Sequence of UniProt Q9UJQ4 (whole entry, looked up): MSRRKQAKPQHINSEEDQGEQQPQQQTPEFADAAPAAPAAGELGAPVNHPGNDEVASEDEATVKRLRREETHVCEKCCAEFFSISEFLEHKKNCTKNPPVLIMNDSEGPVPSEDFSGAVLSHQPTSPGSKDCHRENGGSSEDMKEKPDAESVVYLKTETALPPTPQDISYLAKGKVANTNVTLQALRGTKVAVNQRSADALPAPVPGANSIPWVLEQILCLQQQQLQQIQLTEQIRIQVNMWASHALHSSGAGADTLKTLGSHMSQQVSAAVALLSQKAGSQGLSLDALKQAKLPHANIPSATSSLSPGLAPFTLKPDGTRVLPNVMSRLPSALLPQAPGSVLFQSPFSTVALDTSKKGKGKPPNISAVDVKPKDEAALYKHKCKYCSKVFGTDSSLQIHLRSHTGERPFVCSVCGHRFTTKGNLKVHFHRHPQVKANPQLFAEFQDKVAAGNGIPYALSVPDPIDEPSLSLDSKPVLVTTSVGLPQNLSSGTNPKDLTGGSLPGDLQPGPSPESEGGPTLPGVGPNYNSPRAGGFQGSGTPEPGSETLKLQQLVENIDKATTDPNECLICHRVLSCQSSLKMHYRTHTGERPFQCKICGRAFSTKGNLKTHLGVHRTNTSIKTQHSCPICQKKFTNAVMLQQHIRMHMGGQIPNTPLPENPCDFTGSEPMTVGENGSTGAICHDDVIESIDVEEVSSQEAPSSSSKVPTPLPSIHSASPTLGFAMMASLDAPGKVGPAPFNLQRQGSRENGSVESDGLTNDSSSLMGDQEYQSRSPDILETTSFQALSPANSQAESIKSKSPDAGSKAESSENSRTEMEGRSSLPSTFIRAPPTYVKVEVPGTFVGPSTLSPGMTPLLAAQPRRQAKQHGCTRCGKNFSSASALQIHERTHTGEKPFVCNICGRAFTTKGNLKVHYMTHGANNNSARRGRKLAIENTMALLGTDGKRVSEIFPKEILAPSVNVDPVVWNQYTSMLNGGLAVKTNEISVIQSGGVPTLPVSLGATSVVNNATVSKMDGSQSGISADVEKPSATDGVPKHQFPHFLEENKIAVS
Method: universal PBM
Molecule type: double-stranded DNA, one strand shown
Medium: in vitro
Concentration: 600 nM
Notes: 8-mer, flanks averaged, mean of replicates
Direction: higher = stronger binding
Endpoint: E-score
Strand = GAATTGAC; result = 0.0289
Strand = CACTAAAC; result = 0.133
Strand = GGTCCCAA; result = -0.215

Sample 2
Target: Interferon regulatory factor 7, full length, phosphomimetic (IRF7, Homo sapiens, UniProt Q92985, residues 1-503, S471D/S472D/S475D/S476D/S477D/S483D/S484D/S487D)
Method: protein-binding microarray
Molecule type: double-stranded DNA, one strand shown
Medium: in vitro
Concentration: 2200 nM top
Notes: 60-bp whole probe
Added: salmon DNA 0.4 mg/ml
Relative to: random background probes
Direction: higher = stronger binding
Endpoint: fitted relative affinity
Constant ends, left off below: GCCTAGCAC … GTCTTGATTCGCTTGACGCTGCTG
Target sequence (chain): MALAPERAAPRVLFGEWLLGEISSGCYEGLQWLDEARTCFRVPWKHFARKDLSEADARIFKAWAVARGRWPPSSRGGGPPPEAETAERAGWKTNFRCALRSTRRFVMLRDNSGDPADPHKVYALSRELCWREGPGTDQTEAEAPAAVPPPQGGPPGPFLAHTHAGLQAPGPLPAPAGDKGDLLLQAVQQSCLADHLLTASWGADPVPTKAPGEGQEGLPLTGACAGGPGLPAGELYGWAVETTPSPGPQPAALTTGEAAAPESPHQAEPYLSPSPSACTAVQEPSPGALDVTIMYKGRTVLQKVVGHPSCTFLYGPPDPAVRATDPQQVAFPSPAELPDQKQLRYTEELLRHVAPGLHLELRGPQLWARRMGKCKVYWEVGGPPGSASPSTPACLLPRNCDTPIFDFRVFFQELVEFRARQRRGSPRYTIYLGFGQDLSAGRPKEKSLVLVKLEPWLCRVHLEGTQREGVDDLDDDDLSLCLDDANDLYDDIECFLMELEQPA
Strand = TCACATTGAGATTTTCATACTGTGCTA; result = 0.981 z-score
Strand = TTAGGTCTCCTACTGCCTTAGTGCTAG; result = 0.735 z-score
Strand = TCACTTTTATCCCTGACACTGTGCTAG; result = 2.24 z-score
Strand = GACGGTCTCGGTATCGTGACGTGCTAG; result = 0.228 z-score
Strand = GTCATTATCCTTGTCCCTCCGTGCTAG; result = 1.79 z-score
Strand = GAGGGTTTCGACTATCGGGACGTGCTA; result = 1.58 z-score
Strand = TTAGAACGGGGGTTTCGATTAGTGCTA; result = 3.15 z-score

Sample 3
Target: Histone acetyltransferase KAT6A, both winged helices, GST fusion (KAT6A, Homo sapiens, UniProt Q92794, residues 1-181)
Method: protein binding microarray
Molecule type: double-stranded DNA, one strand shown
Medium: in vitro
Concentration: not given
Notes: 8-mer, flanks averaged, mean of 2 arrays, mostly near background
Relative to: not given
Direction: higher = stronger binding
Endpoint: E-score
Residues (chain): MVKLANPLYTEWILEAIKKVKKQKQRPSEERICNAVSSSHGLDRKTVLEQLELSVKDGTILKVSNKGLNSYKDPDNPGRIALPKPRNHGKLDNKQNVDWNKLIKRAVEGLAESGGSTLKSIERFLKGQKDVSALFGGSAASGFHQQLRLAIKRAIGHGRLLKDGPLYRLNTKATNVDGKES
Strand = AAGCCGAA; result = -0.0127
Strand = AGCAGCCC; result = -0.0682
Strand = AACCTGAA; result = -0.184
Strand = CTTTTGGC; result = -0.011
Strand = AGAATCTC; result = -0.258
Strand = TCCCGTAA; result = 0.131
Strand = ACACCGAT; result = 0.0511
Strand = CGGGCCAC; result = 0.189

Further values, each from its own experiment
Substance = PhoQ, residues 284 288 289 292 302 303 NSMLDC; target = PhoP, residues 12 14 15 18 19 HEGLL (Escherichia coli, UniProt P23836); test = Sort-seq, measured: YFP reporter; system = E. coli; conditions = PhoQ-PhoP variant library, added: 10 µM Mg2+; how to read = relative to: high Mg2+ state, higher = stronger signaling; endpoint = fold induction; result = 10.5

Some of these lines once more (sample 3):
Strand = AACCTGAA; result = -0.184
Strand = CTTTTGGC; result = -0.011
Strand = AGAATCTC; result = -0.258
